Assay results from different studies.
Parts stem from different laboratories: compare values within a part only.

Block 1 — method: RNA Bind-n-Seq; molecule type: RNA; medium: in vitro; tested at: not given; relative to: input RNA pool; direction: higher = stronger binding; quantity: bound/input enrichment
Target: RING finger protein unkempt homolog, zinc fingers 1-6, GST-SBP tag (UNK, Homo sapiens, UniProt Q9C0B0, residues 30-357)
Notes: RNA with constant flanks, human and mouse sites, ends assumed
Constant ends, left off below: GGGAGUUCUACAGUCCGACGAUC … CAACAGAGGAUUGAGCAUCA
Residues (chain): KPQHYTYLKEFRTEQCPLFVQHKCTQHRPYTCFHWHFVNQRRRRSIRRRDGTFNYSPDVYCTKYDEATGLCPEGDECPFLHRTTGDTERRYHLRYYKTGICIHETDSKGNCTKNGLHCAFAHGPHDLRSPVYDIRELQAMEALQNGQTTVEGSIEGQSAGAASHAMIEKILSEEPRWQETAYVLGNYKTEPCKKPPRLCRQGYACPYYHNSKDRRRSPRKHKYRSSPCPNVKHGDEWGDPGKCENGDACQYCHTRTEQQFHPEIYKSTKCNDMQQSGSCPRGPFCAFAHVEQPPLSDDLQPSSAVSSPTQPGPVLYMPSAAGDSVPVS
UGCUUAACUAAUGGGAUAGUGCUAUGGUCACGGAUGGCUUCUUUAGUAAUAAGUGCACUCACUGGUUACAUUUGGAUGGCUUAUGUAACCACAAACAUCAUCUUUCUUGUCUCACUUGAG: 4.07 ratio
GAACCAUAUAUCCUACCGUUCAUGUUUUACAAUGAUGUUAAGAAGCAGCAACAAAUGGCAGCACUUACAAAAGAAAAGGACCAAUUAUCUCAGUCUAUUGUUAUGUAUAAAAGUUUAUUU: 0.32 ratio
AGACCUUUGGGGACAACUAAAGCUGCGGGAUACAAAGUCAGCCCAGGCAGACCUCCAGGUAGCAUUAAAGCUCUAUCCCGUCUUGCCGAUCUUGGUUAUGGCUGUGGCACUGCUGCUUUU: 0.0954 ratio
GAAACAUUUAAAUUUAAAGAAGCUGUUGUUCUAGGAAGUACGGACUUUCUAGAAGAUGAUAUAGAGAAAAUUGUAGAAGAACUGGGGAAAGAGUAUAAGGGCAACGCCUACCAUCUGAUG: 1.58 ratio
UUCUUUGGUCCACUUUUUGAUGGUGCUAUUGUGAAUGGAAAAGUUCUGCCCAUUAUGGUUCGAUCCACAGCAAUAAAUGCUAGCCGUGCUCUGAAAUCACUGAUUCCAUUGUAUCAAAAU: 0.13 ratio
UGGCCCCAGCCUUCCUCUGAGGGCCCAAGUCUCACCCAGCCUGGGCUGGACAAAGAGGCAGCUGUAGCAGUGGUGACAGAAGUGGAGUCUGCUGUACAGCAGGAAGUGGCCUCCCCUGGG: 0.111 ratio
UGUAAGGGACUGGCAGCUCUGCCGCACUCAUGCCUGGAAAGGGCCAAGGAGAUCAAGAUCAAGUUGGGAAUUCUCCUCCAGAAGCCAGACUCUGCUGUUGACCUUGUCAUUCCAUACAAU: 0.0713 ratio
UGUGAUCAUGCCAAUCCACAGCUUUCAAAUCCAAGCCCUUUUCAGACACUUGGGCUGGACUUAGUUUUGGAAUGUGUUGCUAGGUACCAGCCUAAGCAGCGUUCAAUGUUUACCUUUGUA: 0.128 ratio
AUGUACGAGCAUAAUCGAAACGUCACGUGUUUAGUUUUUAUAUGUGUGUACAUAAUUAUACAUAGAGAUAGACUUGUGUAUACACCCUUCGCGCGCACACAUACACACACUCACAUCCUC: 1.16 ratio
GAACCGAAAGGCCAAAUUCCCUCCUCCCUUCUACUGCUUCUACCAACUGGAAGCACAGAAAACUAGAAUUUCAUUUAUUUUGUUUUUAAAAUAUAUAUGUUGAUUUCUUGUAACAUCCAA: 7.37 ratio
AUUGAUGAGCUGAAGAAAGAGAUGGCUAUGAACUUUGGAGACUGGCAUCUUUUUAGAAGCAUGGUCUUAGAAAUGAGAAGUGUGGAAAACCAGGUGGUCCCCGAAGACCCACGUUUUCUC: 0.187 ratio

Block 2 — method: protein-binding microarray; molecule type: double-stranded DNA, one strand shown; medium: in vitro; tested at: 0.8 µM; notes: whole 60-bp probe, no competitor; direction: higher = stronger binding; quantity: fluorescence intensity; constant ends, left off below: … GTCTTGATTCGCTTGACGCTGCTG
Target: Centromere-binding protein 1, full length, N-terminal tag (CBF1, Saccharomyces cerevisiae, UniProt P17106, residues 1-351)
UniProt P17106, sequence (whole entry, looked up): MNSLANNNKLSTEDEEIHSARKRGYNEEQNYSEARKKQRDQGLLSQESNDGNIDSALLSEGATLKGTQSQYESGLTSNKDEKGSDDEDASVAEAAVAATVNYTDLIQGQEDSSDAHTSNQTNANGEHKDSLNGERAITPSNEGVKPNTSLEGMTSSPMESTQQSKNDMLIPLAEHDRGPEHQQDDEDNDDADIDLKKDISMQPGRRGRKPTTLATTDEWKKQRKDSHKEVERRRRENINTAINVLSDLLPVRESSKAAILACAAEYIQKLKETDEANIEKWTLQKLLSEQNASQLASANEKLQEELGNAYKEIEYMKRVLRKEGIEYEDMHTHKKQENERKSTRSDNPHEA
CTATGTGGTATTGAGCACGCGGTACTAGAAGGATTC: 663 a.u.
CCTAACTACTATATACGCGTGGTATAGCTTCGTACA: 557 a.u.
GAAAGATCTATATGTCACCATTGCTAAAGAGGATAG: 595 a.u.
CTAACCAAAAAATTGCACGAGAAAGAATGTCTTTTC: 570 a.u.
CTATTTTGATTACTAGGCATGATGTATGGAGGATTC: 560 a.u.
CTATGGAATCAAGGTGGTGCCGGTGTGAAGCCGTTC: 506 a.u.
GAACATATACAGTGTAACGTGGGGACATTAATTTAG: 600 a.u.
CTACTAAATTGAAATCAGTTGAAAAACAGAAGGTTC: 632 a.u.
CTATATACTAGGTATTTACACGTGAAAGTATTGTTC: 3340 a.u.
CTAGCGCACTATAGTCACATCTTATTATGTTAGTTC: 532 a.u.
CTACATCGAAAGTACCACCACCCAAGTCGAAAATTC: 518 a.u.
CTAAAATTCCACCATCACCTATCAACTAATGGTTTC: 508 a.u.
CTACCCAATCTAACACACATGAGTCGTCGTACGTTC: 574 a.u.
GAAGAATGAGAAAAACCGATCACGTACATCGATTAG: 1100 a.u.
CTAGTGGGTAAATGTCTCGTGCATTAAGACAGGTTC: 729 a.u.
CTAGGGCAAGTAAGTCACGTACTTTTTTTTTTTTTC: 1040 a.u.
TGTACGAAGCTATAGCACGTTCCTATAGTAGTTAGG: 720 a.u.
GAAACAGGAGTTCTGCATGTGCGTAATTCGAAGTAG: 634 a.u.
CTAAAGTATATAAGCAGCGTGATTGTCCGATCGTTC: 630 a.u.
GAATGATTAATTTGTTTCACCTGAGACTCTGTCTAG: 498 a.u.

Block 3 — method: RNA Bind-n-Seq; molecule type: RNA; medium: in vitro; tested at: 365 nM; relative to: no-protein control; direction: higher = stronger binding; quantity: RBNS enrichment (R)
Target: RNA binding protein fox-1 homolog 2, RRM domain, GST-SBP tag (RBFOX2, Homo sapiens, UniProt O43251-10, residues 100-194)
Notes: natural RNA segment, single round, ends assumed
Constant ends, left off below: GGGAGUUCUACAGUCCGACGAUC … UGGAAUUCUCGGGUGCCAA
Residues (chain): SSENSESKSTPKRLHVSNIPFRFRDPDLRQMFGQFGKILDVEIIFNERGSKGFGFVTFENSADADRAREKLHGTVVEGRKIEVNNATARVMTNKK
UUCUAAAGUGGCGUUUGCUGUGUGCUUGAGAGUAACACUGCACGCUGCAGGGGCUGUUGCAGCAGUCAGUCCCAGGAAGCCACAGCGCUUGUAGGAUCUGCUAGGACCCU: 0.805
AAGAAGUGUUUCAAACGAUCUGAAUGUAUAAAACAAGUCAAUGCCCUACAUGGUGUGAUGCUGCAUUAUAUAUACAACCGUGUGCAUAUAUUAAAUUCUGUUUGUCGAGU: 0.273
UAGAAAGCUUUGGAAGUUUUUGUAGAUAGUAGAAAGGGGGGCAUCACCUGAGAAAGAGCUGAUUUUGUAUUUCAGGUUUGAAAAGAAAUAACUGAACAUAUUUUUUAGGC: 1.05
ACCUGAGGGAGCAUUCAGCAAGUCAGUUUGAGAUUAUUUUUCCUUUUCUACGUUGGAACGUGCCCCGGAAUGUGGCCGUCGGCACACUUCUCAGGACAAUGAAUCCUUCC: 0.353
UUAAUUGUUUGCUUUGGACAUGUGGAAAGAGCCUUACUAAUAAAAUUGAUUUUGCUUAUGAAUUAAAGCCCCUUUUUGCACAUGUAUUGUACGACUGGAGUCGUUGGGUU: 5.18
AUUGUAAACUUUUUCAAUGGUUGGGACAAUGGCAAUAGGACAAAACGGGUUACUAAGAUGAAAUUGCCAAAAAAAUUUAUAAACUAAUUUUGUACGUAUGAAUGAUAUCU: 0.575
AGGGCCCCUCUCCUGGCAUCUGUCUCUUGCUACCUAAGCCUGUGCCUCUCCCUAAAGAGCUGCCUCCCUGCUGCCGAGCCCUGGUCUGGCCACGAGCCACCACUGCCUCC: 0.536
AAAAAAAAAAAACAACUGGAAAUGGAUGUCUUCACAUUAGGGGUGGAGUAUUAACAACCAGAAAGAAAGUUUGGAUAUUACCUUUUAACUACUAGUUAACAUCAUGCUUG: 0.551
GCUCAGUCAAUCUGGUGCAGAUGAGGCUGGACAACUACUAACCAAUAAAAUCAGGAGUUUGUACAAAAGUUAAAUGGAACAUUAUAAUUAUUUUAAGUAAUGUUAAUUGA: 0.614
UUACACUACUUAGAAAAUCACCUUUUCAGAUAAAACAGUUUAUGAGUUCAUAGAGAACACCAGCACUCUUUGACAAAACUGUGAGUGACCCUUUUUAAACAAUGCUGAGC: 0.604
CCACCCCAUGUUACAGCAAGACUGGUCUUACAGAGUGAGUACUCUGGGUGAUGCUUACGGGAAGGAGAUUGGUAGAUGCAGUCUUUUUUUCCCCCUUAGCACUUGUAUGA: 0.589
GAGCAUGGCUCACAGGCCUUGUGUCUGGGUGAAGGGAACCCAGGGUCAGGCUGCACUUCUGUUUCUGUCUUUUGCUCAACAGCGGGGUGUGCACUCGUGGCUGCACAGAU: 2.36

Block 4 — method: protein-binding microarray; molecule type: double-stranded DNA, one strand shown; medium: in vitro; tested at: 250 nM; notes: 60-bp whole probe; added: salmon DNA 0.4 mg/ml; relative to: random background probes; direction: higher = stronger binding; quantity: log fluorescence; constant ends, left off below: GCCTAGCAC … GTCTTGATTCGCTTGACGCTGCTG
Target: Interferon regulatory factor 7, full length, phosphomimetic (IRF7, Homo sapiens, UniProt Q92985, residues 1-503, S101K/S471D/S472D/S475D/S476D/S477D/S483D/S484D/S487D)
Construct (chain): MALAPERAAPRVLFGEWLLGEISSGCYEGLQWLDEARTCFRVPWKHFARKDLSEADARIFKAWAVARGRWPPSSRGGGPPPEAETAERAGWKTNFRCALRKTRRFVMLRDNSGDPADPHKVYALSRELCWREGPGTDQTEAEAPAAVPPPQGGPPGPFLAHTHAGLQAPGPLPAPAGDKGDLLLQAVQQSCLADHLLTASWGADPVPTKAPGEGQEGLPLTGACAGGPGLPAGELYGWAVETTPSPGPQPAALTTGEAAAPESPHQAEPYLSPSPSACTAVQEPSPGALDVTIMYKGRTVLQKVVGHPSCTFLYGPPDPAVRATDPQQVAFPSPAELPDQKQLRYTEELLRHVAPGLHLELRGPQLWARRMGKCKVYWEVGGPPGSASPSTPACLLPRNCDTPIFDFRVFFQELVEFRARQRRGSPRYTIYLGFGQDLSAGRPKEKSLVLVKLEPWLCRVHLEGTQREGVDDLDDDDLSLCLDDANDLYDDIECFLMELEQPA
ATAGGTTTCGGGTATCGGTTAGTGCTA: 8.1 z-score
TTAGGACGGGACACTGGGTTAGTGCTA: -0.324 z-score
GACAATTTCAGTTCCGAGACGTGCTAG: 0.757 z-score
TTAGGTATCGGGTTTCGATTAGTGCTA: 7.3 z-score
GACGGTATCGGGTATCGGAACGTGCTA: 0.689 z-score
GACGAACTGGGGTTTCGAGGCGTGCTA: 0.773 z-score
TTAGATTTCAGACTGGATTGGTGCTAG: 0.0378 z-score
TCATTTCTAAATTCCCTACTGTGCTAG: 1.78 z-score
GACTAACTGGGGTATCGAGACGTGCTA: -0.148 z-score
GACGGACTGCTCATCCTGACGTGCTAG: -0.809 z-score
TTAGGTTTCGGGTATAGGTTAGTGCTA: 6.2 z-score
TACCTTAGGTTTTCTGGTTCCGTGCTA: 0.524 z-score
TTAGGTATCCGTTTCGGTTAGTGCTAG: 4.26 z-score
CTTTCACCTCTCGGCCTGATGTGCTAG: 1.35 z-score
TTAAATATCAGTATCGATTAGTGCTAG: 1.39 z-score
TGAGATCTCAGTTTCGATTAGTGCTAG: 8.03 z-score
TCAGTCCTCCTGACTGGGACTGTGCTA: -0.195 z-score
GACGATATCAGTTTCTAGACGTGCTAG: 1.21 z-score
TTAGGACTGGGGTTTCGCTTAGTGCTA: 3.4 z-score
GACGGTTCCCTTTTCCCGACGTGCTAG: 3.68 z-score
TCCACTTTGACTTAAGAGGCGTGCTAG: 0.191 z-score
TCAGCTCTAGGTTCTCTGACTGTGCTA: -0.425 z-score
GACGGTATCGGTCTCGGGATGTGCTAG: 1.07 z-score
GTCTCTGTTCTTTTCAGTCCGTGCTAG: 2.69 z-score
GACGAACTGGGGTTTCGCGACGTGCTA: -0.02 z-score
